Measurements of several laboratories.
Protocols differ between the studies behind these lines. ± gives the spread as reported.

SMILES | method | sample | concentration | pH | temperature | setting | logP
CC1=C2[O][Ru-]([Cl])[O+]=C2C=CN1CCCN1C=CC2=[O+][Ru-]([Cl])[O]C2=C1C.Cc1ccc(C(C)C)cc1.Cc1ccc(C(C)C)cc1 | shake flask, UV-vis | n-octanol/water |  |  |  | aqua complex | -1.4
CN1C(=O)[C@@H](Cc2ccc(O)c(I)c2)NC(=O)CNC(=O)[C@H](Cc2ccc3ccccc3c2)NC(=O)[C@H](CCCNC(=N)N)NC(=O)[C@H]1CCCNC(=O)c1ccc(CNC(=O)CN2CCN(CC(=O)O)CCN(CC(=O)O)CCN(CC(=O)O)CC2)cc1 [lutetium-177 labelled] | shake-flask method |  |  |  |  |  | -1.76
CC[P+](CC)(CC)[Au-][S][C@@H]1O[C@H](COC(C)=O)[C@@H](O[C@H]2O[C@H](COC(C)=O)[C@@H](OC(C)=O)[C@H](OC(C)=O)[C@H]2OC(C)=O)[C@H](OC(C)=O)[C@H]1OC(C)=O |  | n-octanol/water |  |  |  |  | 0.45
CN(C)C(=O)c1ccc(COC(=O)N(Cc2cccc(CN3CCCCC3)c2)[c-]2cccc2)cc1.[Fe+2].c1cc[cH-]c1 | RP-TLC | MOPS/acetonitrile |  | pH 7.4 |  |  | 5.79 ± 0.03
CCCCCCCC[P+](c1ccc(C)cc1)(c1ccc(C)cc1)c1ccc(C)cc1 | shake flask, HPLC | 1-octanol/water |  |  |  |  | 1.57 ± 0.02
O=C([O-])CN1CCNCCNCCN(C(C(=O)[O-])c2ccc(C(=O)O)cc2)CC1.[Mn+2] (stereo not shown) | UPLC retention time |  |  |  |  |  | 0.58
C[C@H](Oc1cc(-c2cnn(C3CCN(CC[18F])CC3)c2)cnc1N)c1c(Cl)ccc(F)c1Cl | octanol/water partition |  |  |  |  |  | 0.73
[C-]#[O+].[C-]#[O+].[C-]#[O+].[C-]#[O+].[C-]#[O+].[C-]#[O+].[Cl-].[Cl-].[Re+].[Re+].c1cnc(-c2ncccn2)nc1 | shake flask |  |  |  |  |  | 0.22
O=[N][Fe]1([N]=O)[S](CCO)[Fe]([N]=O)([N]=O)[S]1CCO | n-octanol/water |  |  |  |  |  | 1
CC1=C2[O][Ru-]([Cl])[O+]=C2C=CN1CCCCCCCCCCCCN1C=CC2=[O+][Ru-]([Cl])[O]C2=C1C.Cc1ccc(C(C)C)cc1.Cc1ccc(C(C)C)cc1 | shake flask, UV-vis | n-octanol/water |  |  |  | aqua complex | -0.58
CC[P+](CC)(CC)[Au-][S][C@@H]1O[C@H](COC(C)=O)[C@H](OC(C)=O)[C@H](OC(C)=O)[C@H]1OC(C)=O |  | n-octanol/water |  |  |  |  | 0.38
C1=CCCC=CCC1.F[P-](F)(F)(F)(F)F.[Pt+][c]1ccccc1P(=Nc1ccccc1)(c1ccccc1)c1ccccc1 |  | n-octanol/phosphate buffer |  | pH 7.00 |  |  | 0.02
CN1C(=O)[C@@H](Cc2ccc(O)cc2)NC(=O)CNC(=O)[C@H](Cc2ccc3ccccc3c2)NC(=O)[C@H](CCCNC(=N)N)NC(=O)[C@H]1CCCNC(=O)c1ccc(CNC(=O)CN2CCN(CC(=O)O)CCN(CC(=O)O)CCN(CC(=O)O)CC2)cc1 [gallium-68 labelled] |  | octanol/water |  |  |  |  | -2.9
CC1(C)OB(c2ccc(COC(=O)N[c-]3cccc3)cc2)OC1(C)C.[Fe+2].c1cc[cH-]c1 | RP-TLC | MOPS/acetonitrile |  | pH 7.4 |  |  | 5 ± 0.3
Cn1[c]([Ir-3]234([NH3+])[n]5c6ccc5C(c5c(F)c(F)c(F)c(F)c5F)=C5C=CC(=[N+]52)C(c2c(F)c(F)c(F)c(F)c2F)=c2ccc([n]23)=C(c2c(F)c(F)c(F)c(F)c2F)C2=[N+]4C(=C6c3c(F)c(F)c(F)c(F)c3F)C=C2)[n+](C)c2ccccc21.F[P-](F)(F)(F)(F)F | ICP-MS | n-octanol/saline |  |  |  |  | 2.67
CC[P+](CC)(CC)[Au-][S][C@@H]1O[C@H](COC(C)=O)[C@@H](OC(C)=O)[C@H](OC(C)=O)[C@H]1NC(=O)C(Cl)(Cl)Cl |  | n-octanol/water |  |  |  |  | 1.01
Cc1c([O][Ru][Cl])c(=O)ccn1CCCCn1ccc(=O)c([O][Ru][Cl])c1C.Cc1ccc(C(C)C)cc1.Cc1ccc(C(C)C)cc1 | shake flask, UV-vis | n-octanol/water |  |  |  | aqua complex | -1.38

SMILES | method | sample | concentration | pH | temperature | setting | logP
COCCOCCOCCOCCOCCOCCOCCNC(=O)CCC1(CCC(=O)NCCOCCOCCOCCOCCOCCOCCOC)c2ccccc2-c2ccc(-c3sc(-c4c5c(c(-c6sc(-c7ccc8c(c7)C(CCC(=O)NCCOCCOCCOCCOCCOCCOCCOC)(CCC(=O)NCCOCCOCCOCCOCCOCCOCCOC)c7ccccc7-8)c7c6OCCO7)c6nsnc46)N=S=N5)c4c3OCCO4)cc21 | shake flask | n-octanol/water |  |  |  |  | -0.41
COC(=O)c1ccccc1-c1c2ccc(=O)cc-2oc2cc(OCCCCCCCCCCC[P+](c3ccccc3)(c3ccccc3)c3ccccc3)ccc12 | shake-flask HPLC | 1-octanol/water |  |  |  |  | 2.72 ± 0.07
CC(C)[P+](c1ccccc1)(c1ccccc1)c1ccccc1 | HPLC | octanol/water | 100 µM |  |  |  | -1.28 ± 0.01
O=C([O-])CN1CCN(CC(=O)[O-])CCN(CC(=O)[O-])C(Cc2ccc(NC(=S)NCCc3ccc4c(c3)C3C=CCC3C(c3cc5c(cc3Br)OCO5)N4)cc2)CN(CC(=O)[O-])CC1.[111In+3] (stereo not shown) |  | octanol/water |  |  |  | In(III) complex | 5.2 ± 0.3
COc1cc(OC)cc(C2=C3C(C)=C(I)C(/C=C/c4c[nH]c5ccc([N+](=O)[O-])cc45)=[N+]3[B-](F)(F)n3c(/C=C/c4c[nH]c5ccc([N+](=O)[O-])cc45)c(I)c(C)c32)c1 |  | octanol/HEPES buffer |  | pH 7.4 | room temperature |  | 1.94
FC(F)(F)c1ccc2nc3c4cccnc4c4ncccc4c3nc2c1.[Cl-].[Cl-].[Ru+2].c1ccncc1.c1ccncc1.c1ccncc1.c1ccncc1 |  | n-octanol/water |  |  |  |  | -1.14 ± 0.03
Cc1c(C)c(C)[c-](C)c1C.O=C1c2cccc[n+]2[Ir]([Cl])[N]1CCCCCCCCCCCc1ccc2ccc3cccc4ccc1c2c34 | shake-flask | octanol/PBS |  |  |  |  | 1.86 ± 0.19
COc1cccc(C=NCCCN(C)CCN(C)CCCN=Cc2cccc(OC)c2O)c1O |  | 1-octanol/saline |  | pH 7.4 |  | 67Ga complex | 1.39 ± 0.01
N=C(N)NCCC[C@@H]1NC(=O)[C@H](CCCCNC(=O)CC[C@H](NC(=O)CN2CCN(CC(=O)O)CCN(CC(=O)O)CCN(CC(=O)O)CC2)C(=O)NCCCC[C@@H]2NC(=O)[C@@H](Cc3ccccc3)NC(=O)[C@H](CC(=O)O)NC(=O)CNC(=O)[C@H](CCCNC(=N)N)NC2=O)NC(=O)[C@@H](Cc2ccccc2)NC(=O)[C@H](CC(=O)O)NC(=O)CNC1=O [indium-111 labelled] |  | octanol/PBS |  | pH 7.4 | room temperature |  | -3.95 ± 0.05
CN[P+](c1ccccc1)(c1ccccc1)c1ccccc1 | HPLC | octanol/PBS |  |  |  |  | 0.527
COc1cc(OC)cc(C2=C3C(C)=C(I)C(C)=[N+]3[B-](F)(F)n3c(/C=C/c4c[nH]c5ccccc45)c(I)c(C)c32)c1 |  | octanol/HEPES buffer |  | pH 7.4 | room temperature |  | 1.04
C#CCN(C(=O)OCc1ccc(B(O)O)cc1)[c-]1cccc1.[Fe+2].c1cc[cH-]c1 | RP-TLC | MOPS/acetonitrile |  | pH 7.4 |  |  | 3.35 ± 0.25
COc1ccc(C=NCCCN(C)CCN(C)CCCN=Cc2ccc(OC)cc2O)c(O)c1 |  | 1-octanol/saline |  | pH 7.4 |  | 67Ga complex | 1.92 ± 0.01
N[C@@H](CSC(F)(F)[18F])C(=O)O |  | n-octanol/water |  |  |  |  | -2.75
C#CCN(C(=O)OCc1ccc(F)cc1)[c-]1cccc1.[Fe+2].c1cc[cH-]c1 | RP-TLC | MOPS/acetonitrile |  | pH 7.4 |  |  | 4.72 ± 0.15
CCCCC[P+](c1cc(C)cc(C)c1)(c1cc(C)cc(C)c1)c1cc(C)cc(C)c1 | shake flask, HPLC | 1-octanol/water |  |  |  |  | 0.9 ± 0.01
N.N.O=C(CCCc1ccccc1)[O][Pt]([Cl])([Cl])[O]C(=O)CCCc1ccccc1 | shake-flask | octanol/water |  |  |  |  | -0.73 ± 0.05

Excerpt of the above:
SMILES | method | sample | concentration | pH | temperature | setting | logP
CCCCCCCC[P+](c1ccc(C)cc1)(c1ccc(C)cc1)c1ccc(C)cc1 | shake flask, HPLC | 1-octanol/water |  |  |  |  | 1.57 ± 0.02
O=C([O-])CN1CCNCCNCCN(C(C(=O)[O-])c2ccc(C(=O)O)cc2)CC1.[Mn+2] (stereo not shown) | UPLC retention time |  |  |  |  |  | 0.58
